Measured values pooled from the literature.
Numbers after ± are the reported error.
UniProt P25929, sequence (whole entry, unmodified, looked up): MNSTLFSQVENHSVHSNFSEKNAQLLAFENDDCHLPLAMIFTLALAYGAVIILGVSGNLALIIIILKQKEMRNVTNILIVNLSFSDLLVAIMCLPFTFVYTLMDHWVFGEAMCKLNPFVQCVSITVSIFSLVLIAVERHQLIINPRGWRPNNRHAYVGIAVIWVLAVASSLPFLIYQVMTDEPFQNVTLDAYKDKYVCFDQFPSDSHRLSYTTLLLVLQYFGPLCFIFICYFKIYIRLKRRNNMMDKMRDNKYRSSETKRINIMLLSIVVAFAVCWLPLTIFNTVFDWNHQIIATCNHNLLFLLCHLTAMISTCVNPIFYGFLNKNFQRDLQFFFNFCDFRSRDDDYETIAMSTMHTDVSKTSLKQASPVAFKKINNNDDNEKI

The IC50 of `O=[N+]([O-])c1ccc(NC2=N[N+](=Cc3cccs3)[Pt-]([Cl])([Cl])[S]2)cc1` is reported as 34 µM (HEL human lung fibroblasts; cell proliferation).
`CC(C)=CCc1c(-c2cc(O)c(O)cc2O)oc2c(CC=C(C)C)c(O)cc(O)c2c1=O` has an IC50 of 92 µM (T.Tn; cell growth, MTT; 72 h).
For `C#CCN(C(=O)OCc1ccc(F)cc1)[c-]1cccc1.[Fe+2].c1cc[cH-]c1`, the IC50 was 18.2 µM (BL2; cell growth or viability, MTT; 48 h).
For `CSc1nc(Nc2cccc(/C(C)=N/NC(=O)c3cccc(Cl)c3)c2)c(C#N)c(-c2ccccc2)n1`, the IC50 was 9.25 to 15.3 µM (HCT-116 and MCF7; cell growth, MTT; range over compound group).
With `O=C(/C=C/c1cccc(S(=O)(=O)Nc2ccc(F)cc2F)c1)NO` the IC50 was 0.784 ± 0.198 µM (MOPC-315; cell growth; 24 h).
The IC50 of `N#C/C(=C\c1cn(-c2ccccc2)nc1-c1cccc(Cl)c1)c1nc2ccccc2[nH]1` is reported as > 100 µM (ASPC1; cell growth or viability, ATP luminescence; 72 h).
`[CH3][Pd-2]([Cl])([N+](=Cc1ccc[nH]1)Cc1ccccc1)[N+](=Cc1ccc[nH]1)Cc1ccccc1` gave an IC50 of 22.9 µg/mL (MCF-12A; cell growth or viability, MTT; 24 h).
`CCN1CCC2(CC1)C/C(=N\NC(=O)Nc1ccc(OC)cc1)c1ccccc1O2` gave an IC50 of 5.47 to 39 µM (MCF7, HCT-116, PC-3, A549; cell growth, MTT; range over cell lines).
`N=C(N/N=C/c1ccc(F)cc1)N/N=C/c1ccc(F)cc1` has an IC50 of 50 ± 5.4 µM (hTERT-HPNE; cell growth, crystal violet; 72 h).
`CCOC(=O)c1[nH]c(C)c(/C=C/C2=[N+]3C(=C(c4cc(OC)cc(OC)c4)c4c(C)c(I)c(/C=C/c5c(C)[nH]c(C(=O)OCC)c5C)n4[B-]3(F)F)C(C)=C2I)c1C` gave an IC50 of > 400 µM (HEp-2; cell growth or viability, resazurin; 24 h, dark).
The IC50 of `c1ccc(-c2cc(-c3ccc(-n4cc(-c5ccc(-c6cccs6)s5)nn4)cc3)cc(-c3ccccn3)n2)nc1` is reported as > 25 µM (NHDF normal human fibroblasts; cytotoxicity, MTS; 72 h).
For `COC(=O)[C@H]1[C@H]2C[C@H]3O[C@@]4(CCN3C[C@H]2C[C@@H](O)[C@@H]1OC)C(=O)Nc1cc(OC)c(-c2ccc(C(C)(C)C)cc2)cc14`, the IC50 was 4.45 µM (NALM-6; cell growth or viability, trypan blue; 72 h).
The IC50 of `COc1c(O)c(Br)c2oc3c(Br)c(O)c(CCC(C)C)c(O)c3c(=O)c2c1CCC(C)C` is reported as 20.7 µM (BEAS-2B; cell growth or viability).
With `CCC(C)C1OC(=O)C(C)(C)C(=O)C(Cc2ccccc2)OC(=O)C(C(C)C)OC(=O)C(NC(=O)c2cccc(O)c2)C(C)OC1=O` (stereo not drawn) the IC50 was > 20 µM (HCT-8; cell growth or viability, CCK-8; 72 h).
`Cc1c(C)n(-c2c(C(C)C)cccc2C(C)C)c(=[Se])n1-c1c(C(C)C)cccc1C(C)C.[Cl][Au]` gave an IC50 of 0.4 ± 0.1 µM (H157 lung carcinoma cells; cell viability, MTT; 72 h).
`Cc1ccc(C(C)C)cc1.Oc1ccccc1C=NNC1=Nc2ccccc2-c2[nH]c3ccc(Br)cc3c2C1.[Cl-].[Cl][Os+]` gave an IC50 of 1.6 ± 0.3 µM (NCI-N87; cytotoxicity, MTT; 96 h).
For `CC[C@H](C)[C@H](NC(=O)[C@@H]1CCCN1C(=O)[C@@H](NC(=O)[C@@H]1CCCN1C(=O)[C@H](CCCCN)NC(=O)[C@H](CCCCN)NC(=O)[C@H](CCCCN)NC(=O)[C@@H]1CCCN1C(=O)[C@@H](N)CCSC)[C@@H](C)O)C(=O)N[C@@H](CCC(N)=O)C(=O)N[C@@H](CC(C)C)C(=O)N[C@@H](CC(N)=O)C(=O)N1CCC[C@H]1C(=O)N[C@@H](CCCCNC(=O)CNC(=O)[C@H](CCCCN)NC(=O)[C@H](CCCNC(=N)N)NC(=O)[C@H](Cc1ccccc1)NC(=O)[C@H](CCCNC(=N)N)NC(=O)[C@H](CCCNC(=N)N)NC(=O)[C@H](CCCNC(=N)N)NC(=O)[C@H](CO)NC(=O)[C@H](Cc1ccc(O)cc1)NC(=O)[C@H](CO)NC(=O)[C@H](CC(C)C)NC(=O)[C@H](CCCNC(=N)N)NC(=O)[C@@H](N)CCCNC(=N)N)C(N)=O`, the IC50 was 18.2 µM (HPASMC; PDGF-induced ERK phosphorylation, inhibitor, Western blot, refers to: phospho-ERK1/2; 30 min preincubation, serum-free medium, with: PDGF 1 ng/mL, 10 min).
`[64Cu+2].c1ccc(CNCc2ccc(CN3CCCN4CCNCCCN(CC4)CC3)cc2)nc1` has a tissue uptake of 0.36 ± 0.05 %ID/g (CXCR4; NOD/SCID mouse, U87 and U87-stb-CXCR4 xenografts, muscle; iv, 60 min, ex vivo).
`Cc1ccc(Nc2ccn3ncc(-c4ccc5c(c4)CN([C@H]4CCC(=O)NC4=O)C5=O)c3n2)cc1Cl` has an IC50 of 0.239 µM (MOLM-13; cell growth or viability, ATP luminescence; 72 h).
With `CC(C)(C)c1cc(=O)n2ncc(-c3ccc(F)cc3)c2[nH]1` the IC50 was 5.86 µM (HCT-116 3D tumour organoids; cytotoxicity; 0.4% DMSO; 72 h, 2% Matrigel).
With `CC(C)=CCC1=C([O-])C(=O)c2ccccc2C1=O.CC(C)=CCC1=C([O-])C(=O)c2ccccc2C1=O.[Cu+2].c1ccc(-c2ccccn2)nc1` the IC50 was 22 ± 2.8 µM (A2780R cisplatin-resistant; cell viability, MTT; 24 h).
For `C=CC(=O)Nc1cc(Nc2nccc(-c3c(-c4cccc(F)c4)n(C)c4ccccc34)n2)c(OC)cc1N(C)CCN(C)C`, the IC50 was 0.044 µM (NCI-H1975; cell growth or viability, MTT; 72 h).
`Cc1cc(C=O)cc(C)c1Oc1cc(Nc2ccc(C#N)cc2)nc2ccncc12` gave an IC50 of > 127 µM (S102; 48 h).
With `C=CC(=O)Nc1ccc(-c2c(-c3ccc(Oc4cccc(C)n4)cc3)c3c(N)ncnc3n2C)cc1` the IC50 was 0.014 µM (JMSU-1; cell growth or viability, ATP luminescence; 96 h).
`CCOC(=O)CNC(=O)/N=C(/N)NCCC[C@@H](NC(=O)C(c1ccccc1)c1ccccc1)C(=O)NCc1ccc(O)cc1` gave a Kb of 0.0003 µM (NPY1R (Homo sapiens, UniProt P25929, T280A); antagonist; human cells).
`Cc1cc(O)cc2c1O[C@](C)(CCC[C@H](C)CCC[C@H](C)CCCC(C)C)CC2` gave an IC50 of 2.93 µM (SK-MEL3; cell growth or viability, MTT; 24 h).
The IC50 of `NC[C@@H](C(=O)Nc1ccc(-c2cn[nH]c2)cc1)c1ccccc1` is reported as 0.0504 µM (HTM; refers to: pMLC2 Ser18/Thr19).
The IC50 of `COC(=O)[C@@H]1[C@@H](OC)[C@H](OC(=O)c2cc(OC)c(OC)c(OC)c2)C[C@@H]2CN3CC[C@]4(O[C@@H]3C(=O)[C@@H]21)C(=O)Nc1cc(OC)c(-c2ccc(C(F)(F)F)cc2)cc14` is reported as 0.61 µM (NALM-6; cell growth or viability, trypan blue; 72 h).
With `CCN(CC)C1=[S+][Au-2]2([S]1)[c]1ccccc1-c1cccc[n+]12.F[P-](F)(F)(F)(F)F` (stereo not drawn) the IC50 was 2.19 µM (UWB1289; cell growth or viability, MTT; 72 h).
The IC50 of `C[C@@H](C[C@@H](O)[C@H](O)C(C)(C)O)[C@@H]1CC[C@]2(C)C3=CC[C@H]4C(C)(C)C(=O)CC[C@]4(C)[C@H]3CC[C@@]12C` is reported as 8.4 µM (HEp-2; cell growth or viability, MTT; 48 h).
`N=C(N/N=C/c1ccc2ccc3cccc4ccc1c2c34)N/N=C/c1ccc2ccc3cccc4ccc1c2c34` gave an IC50 of 284 ± 54 µM (hTERT-HPNE; cell growth, crystal violet; 72 h).
For `CC#N.[Ru+2].c1ccc(-c2cccc(-c3ccccn3)n2)nc1.c1ccc(-c2ccccn2)nc1`, the IC50 was > 100 µM (HL-60; cell viability; with: light 22 J/cm^2).
`O=C1CC[C@H](N2Cc3cc(-c4cnn5ccc(NCCc6ccccc6)nc45)ccc3C2=O)C(=O)N1` gave an IC50 of > 0.1 µM (MOLM-13; cell growth, CellTiter luminescence; 72 h).
`CC1(C)O[C@@H]1CC[C@](C)(O)[C@H]1CC[C@]2(C)[C@@H]1CC[C@@H]1[C@@]3(C)CCC(=O)C(C)(C)[C@@H]3CC[C@]12C` has an IC50 of > 30 µM (SCM-1; cytotoxicity, MTT).
`[64Cu+2].c1cnc(CNCc2ccc(CN3CCCN4CCNCCCN(CC4)CC3)cc2)nc1` gave a tissue uptake of 6.94 ± 1.69 %ID/g (CXCR4; NOD/SCID mouse, U87 and U87-stb-CXCR4 xenografts, lungs; iv, 240 min, ex vivo).
For `CC(C)CCc1c(O)cc2oc3cc(O)c(O)c(CCC(C)C)c3c(=O)c2c1O`, the IC50 was 6.48 µM (BEAS-2B; cell growth or viability).
`Cc1ccc(CNS(=O)(=O)c2cccc(/C=C/C(=O)NO)c2)cc1` gave an IC50 of 0.167 ± 0.014 µM (MOPC-315; cell growth; 24 h).
The IC50 of `Cc1cc(C#N)cc(C)c1Oc1cc(Nc2ccc(C#N)cn2)nc2ccncc12` is reported as > 127 µM (S102; 48 h).
With `COc1cccc(-c2ccc(Nc3ccc(CN(C)C)cc3)c(OC)c2F)c1` the IC50 was 7.2 ± 1.2 µM (SNU-1 (KRAS G12D); cell viability, CellTiter-Glo; 72 h).
The IC50 of `NC(=O)c1ccc(CN(Cc2ccccc2F)C(=O)c2ccc3nc(N)ccc3c2)cc1` is reported as 9.23 µM (HCT-116 MTAP-deleted; 144 h).
For `CC1=C2[O][Ru-]([Cl])[O+]=C2C=CN1CCCCCCCCCCCCN1C=CC2=[O+][Ru-]([Cl])[O]C2=C1C.Cc1ccc(C(C)C)cc1.Cc1ccc(C(C)C)cc1`, the IC50 was 1.8 ± 1.2 µM (KYSE70-oxo oxoplatin-resistant; crystal violet; 96 h).
With `COc1cc(OC)cc(C2=C3C(C)=C(I)C(C)=[N+]3[B-](F)(F)n3c(/C=C/c4c[nH]c5ccccc45)c(I)c(C)c32)c1` the IC50 was 148 µM (HEp-2; cell growth or viability, resazurin; 24 h, dark).
For `COC(=O)CNc1cc(C[S+]([O-])c2ccc3ccccc3c2)ccc1OC` (stereo not drawn), the IC50 was 0.786 µM (SCC-15; cell growth or viability, MTS; 48 h).
`C=Cn1c2ccc([N+](=O)[O-])cc2c(=O)n1Cc1ccccc1` gave a selectivity index of 5 (Leishmania amazonensis; promastigotes, MHOM/BR/77/LTB0016; baseline: CC50 macrophages over IC50 promastigotes).
`COc1cc(OC)cc(C2=C3C(C)=C(I)C(C)=[N+]3[B-](F)(F)n3c(/C=C/c4cccs4)c(I)c(C)c32)c1` gave an IC50 of 14.5 µM (HEp-2; phototoxicity, CellTiter-Blue; with: light 1.5 J/cm^2).
With `C=C1C(=O)OC2CC3=C[C@@H](C/C(C)=C/C(OC(=O)Cc4cccc5ccccc45)[C@H]12)OC3=O` (stereo partly drawn) the IC50 was 1.7 µM (TS/A; cell growth or viability, MTT; 24 h).
With `C=CC(=O)Nc1ccc(F)c(-c2ncnc3[nH]cc(C(=O)OCC)c23)c1` the IC50 was > 1.1 µM (mouse CD4 T-cell blasts; STAT1 phosphorylation; with: IFN-gamma).
The IC50 of `Cc1cc(CN2CCC(CCCCCCC(=O)NO)CC2)cc(C)c1-c1ncn(C)c1-c1ccc(C#N)c2ccccc12` is reported as 0.15 µM (Bel-7405; cell growth, MTT; 72 h).

Repeated from above:
With `O=C(/C=C/c1cccc(S(=O)(=O)Nc2ccc(F)cc2F)c1)NO` the IC50 was 0.784 ± 0.198 µM (MOPC-315; cell growth; 24 h).
For `COC(=O)[C@H]1[C@H]2C[C@H]3O[C@@]4(CCN3C[C@H]2C[C@@H](O)[C@@H]1OC)C(=O)Nc1cc(OC)c(-c2ccc(C(C)(C)C)cc2)cc14`, the IC50 was 4.45 µM (NALM-6; cell growth or viability, trypan blue; 72 h).
The IC50 of `NC(=O)c1ccc(CN(Cc2ccccc2F)C(=O)c2ccc3nc(N)ccc3c2)cc1` is reported as 9.23 µM (HCT-116 MTAP-deleted; 144 h).
`CCN1CCC2(CC1)C/C(=N\NC(=O)Nc1ccc(OC)cc1)c1ccccc1O2` gave an IC50 of 5.47 to 39 µM (MCF7, HCT-116, PC-3, A549; cell growth, MTT; range over cell lines).
`[CH3][Pd-2]([Cl])([N+](=Cc1ccc[nH]1)Cc1ccccc1)[N+](=Cc1ccc[nH]1)Cc1ccccc1` gave an IC50 of 22.9 µg/mL (MCF-12A; cell growth or viability, MTT; 24 h).
The IC50 of `Cc1cc(C#N)cc(C)c1Oc1cc(Nc2ccc(C#N)cn2)nc2ccncc12` is reported as > 127 µM (S102; 48 h).
